Results from different studies.
Lines come from different studies, so protocols differ. Numbers after ± are the reported error.
Proteasome component C5/PSMB5: Proteasome component C5/PSMB5 (Homo sapiens, UniProt P20618+P28074)
Chain of UniProt P20618 (whole entry, looked up): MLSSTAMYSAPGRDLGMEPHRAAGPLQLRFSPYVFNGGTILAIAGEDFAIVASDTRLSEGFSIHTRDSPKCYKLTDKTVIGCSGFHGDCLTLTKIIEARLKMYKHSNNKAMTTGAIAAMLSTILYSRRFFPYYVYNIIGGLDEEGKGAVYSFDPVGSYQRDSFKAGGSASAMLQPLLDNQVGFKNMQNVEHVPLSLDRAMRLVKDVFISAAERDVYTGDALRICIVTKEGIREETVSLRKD
Chain of UniProt P28074 (whole entry, looked up): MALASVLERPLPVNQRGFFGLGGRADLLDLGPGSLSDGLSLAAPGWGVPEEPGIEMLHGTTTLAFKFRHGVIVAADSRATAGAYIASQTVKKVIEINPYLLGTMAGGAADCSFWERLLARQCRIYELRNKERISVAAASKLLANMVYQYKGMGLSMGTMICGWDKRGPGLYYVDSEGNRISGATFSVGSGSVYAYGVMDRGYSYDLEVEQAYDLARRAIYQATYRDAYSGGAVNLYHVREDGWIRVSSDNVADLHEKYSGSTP
GRPR: Gastrin-releasing peptide receptor (GRPR, Homo sapiens, UniProt P30550)
Chain of UniProt P30550 (whole entry, looked up): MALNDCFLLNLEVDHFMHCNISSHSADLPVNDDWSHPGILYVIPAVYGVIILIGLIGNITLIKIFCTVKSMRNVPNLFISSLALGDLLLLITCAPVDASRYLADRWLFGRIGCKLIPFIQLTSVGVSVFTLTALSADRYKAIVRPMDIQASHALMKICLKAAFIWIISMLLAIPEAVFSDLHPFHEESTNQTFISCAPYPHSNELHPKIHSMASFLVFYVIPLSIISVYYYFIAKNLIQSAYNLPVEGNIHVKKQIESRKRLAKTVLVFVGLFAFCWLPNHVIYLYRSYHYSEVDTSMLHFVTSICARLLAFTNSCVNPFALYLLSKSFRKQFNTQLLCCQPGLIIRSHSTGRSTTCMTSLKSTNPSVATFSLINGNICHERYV
SLC6A3: Sodium-dependent dopamine transporter (SLC6A3, Homo sapiens, UniProt Q01959)
Chain of UniProt Q01959 (whole entry, looked up): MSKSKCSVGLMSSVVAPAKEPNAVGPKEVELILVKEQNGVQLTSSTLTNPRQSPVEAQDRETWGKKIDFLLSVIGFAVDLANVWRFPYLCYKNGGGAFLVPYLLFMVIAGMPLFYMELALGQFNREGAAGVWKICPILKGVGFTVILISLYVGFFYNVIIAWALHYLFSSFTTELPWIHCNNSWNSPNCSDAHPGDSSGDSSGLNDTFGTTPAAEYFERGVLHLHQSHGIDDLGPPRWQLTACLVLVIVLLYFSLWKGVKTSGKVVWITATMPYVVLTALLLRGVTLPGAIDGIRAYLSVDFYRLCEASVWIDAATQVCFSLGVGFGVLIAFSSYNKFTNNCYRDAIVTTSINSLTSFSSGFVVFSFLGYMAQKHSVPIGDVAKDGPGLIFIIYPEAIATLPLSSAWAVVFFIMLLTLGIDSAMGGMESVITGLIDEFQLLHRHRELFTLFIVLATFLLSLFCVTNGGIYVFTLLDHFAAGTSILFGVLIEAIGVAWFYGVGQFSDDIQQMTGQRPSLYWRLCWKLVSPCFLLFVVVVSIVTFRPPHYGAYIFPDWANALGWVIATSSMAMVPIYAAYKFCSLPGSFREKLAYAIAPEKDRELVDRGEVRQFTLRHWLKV
VCP: Transitional endoplasmic reticulum ATPase (VCP, Homo sapiens, UniProt P55072)
Chain of UniProt P55072 (whole entry, looked up): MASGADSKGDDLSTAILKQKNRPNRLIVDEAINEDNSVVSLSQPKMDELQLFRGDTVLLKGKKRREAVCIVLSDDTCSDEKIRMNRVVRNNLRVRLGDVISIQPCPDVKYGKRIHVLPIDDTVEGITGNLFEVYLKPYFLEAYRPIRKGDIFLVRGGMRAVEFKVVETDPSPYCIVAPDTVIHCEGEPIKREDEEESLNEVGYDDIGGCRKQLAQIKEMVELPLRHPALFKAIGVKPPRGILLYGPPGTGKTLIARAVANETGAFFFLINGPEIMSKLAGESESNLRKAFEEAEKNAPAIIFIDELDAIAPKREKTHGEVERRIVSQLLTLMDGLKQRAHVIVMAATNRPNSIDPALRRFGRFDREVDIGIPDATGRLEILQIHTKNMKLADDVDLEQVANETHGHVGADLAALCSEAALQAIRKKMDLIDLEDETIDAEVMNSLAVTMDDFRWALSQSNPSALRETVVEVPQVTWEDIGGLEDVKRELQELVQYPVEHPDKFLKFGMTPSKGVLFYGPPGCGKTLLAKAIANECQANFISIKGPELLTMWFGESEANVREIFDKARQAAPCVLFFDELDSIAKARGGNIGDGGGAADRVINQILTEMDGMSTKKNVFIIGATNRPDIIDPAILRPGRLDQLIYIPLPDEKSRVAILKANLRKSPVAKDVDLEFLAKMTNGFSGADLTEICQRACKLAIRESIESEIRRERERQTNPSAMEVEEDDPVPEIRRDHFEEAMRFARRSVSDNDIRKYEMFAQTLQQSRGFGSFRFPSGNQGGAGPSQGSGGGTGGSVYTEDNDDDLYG
Chain of UniProt P18084 (whole entry, looked up): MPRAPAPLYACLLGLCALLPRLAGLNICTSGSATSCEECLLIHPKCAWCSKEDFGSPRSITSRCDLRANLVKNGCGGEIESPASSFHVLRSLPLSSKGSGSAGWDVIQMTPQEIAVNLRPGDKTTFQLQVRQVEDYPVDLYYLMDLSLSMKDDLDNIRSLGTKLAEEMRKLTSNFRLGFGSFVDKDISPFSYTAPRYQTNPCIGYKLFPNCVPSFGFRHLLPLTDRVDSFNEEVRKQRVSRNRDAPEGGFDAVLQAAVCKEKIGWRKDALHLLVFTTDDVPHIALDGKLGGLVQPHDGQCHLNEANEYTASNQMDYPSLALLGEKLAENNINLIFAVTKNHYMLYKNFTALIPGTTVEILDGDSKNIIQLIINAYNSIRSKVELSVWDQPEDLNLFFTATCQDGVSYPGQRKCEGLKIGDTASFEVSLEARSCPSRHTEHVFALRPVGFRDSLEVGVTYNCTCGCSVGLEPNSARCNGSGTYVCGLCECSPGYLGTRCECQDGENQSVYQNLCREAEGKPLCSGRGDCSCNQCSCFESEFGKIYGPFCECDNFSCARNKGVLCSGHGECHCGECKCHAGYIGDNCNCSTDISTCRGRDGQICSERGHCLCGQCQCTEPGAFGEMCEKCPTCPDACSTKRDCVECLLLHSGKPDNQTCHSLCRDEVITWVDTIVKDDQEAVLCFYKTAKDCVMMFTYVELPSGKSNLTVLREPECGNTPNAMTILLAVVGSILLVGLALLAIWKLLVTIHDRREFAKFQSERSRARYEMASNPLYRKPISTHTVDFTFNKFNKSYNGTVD
Chain of UniProt P16389 (whole entry, looked up): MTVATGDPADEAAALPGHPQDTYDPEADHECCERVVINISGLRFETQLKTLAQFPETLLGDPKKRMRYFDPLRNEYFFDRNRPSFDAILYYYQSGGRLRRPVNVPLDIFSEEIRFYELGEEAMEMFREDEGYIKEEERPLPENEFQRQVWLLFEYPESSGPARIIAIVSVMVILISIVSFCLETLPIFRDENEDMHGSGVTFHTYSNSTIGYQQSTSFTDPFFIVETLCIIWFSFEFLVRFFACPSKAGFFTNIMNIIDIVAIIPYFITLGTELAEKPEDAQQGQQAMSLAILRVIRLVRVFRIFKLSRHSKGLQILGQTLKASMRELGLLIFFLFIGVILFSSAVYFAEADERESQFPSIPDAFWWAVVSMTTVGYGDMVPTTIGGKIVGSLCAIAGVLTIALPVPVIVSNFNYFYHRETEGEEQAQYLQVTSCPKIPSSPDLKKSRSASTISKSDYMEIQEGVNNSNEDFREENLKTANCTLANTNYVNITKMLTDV
Chain of UniProt O95271 (whole entry, looked up): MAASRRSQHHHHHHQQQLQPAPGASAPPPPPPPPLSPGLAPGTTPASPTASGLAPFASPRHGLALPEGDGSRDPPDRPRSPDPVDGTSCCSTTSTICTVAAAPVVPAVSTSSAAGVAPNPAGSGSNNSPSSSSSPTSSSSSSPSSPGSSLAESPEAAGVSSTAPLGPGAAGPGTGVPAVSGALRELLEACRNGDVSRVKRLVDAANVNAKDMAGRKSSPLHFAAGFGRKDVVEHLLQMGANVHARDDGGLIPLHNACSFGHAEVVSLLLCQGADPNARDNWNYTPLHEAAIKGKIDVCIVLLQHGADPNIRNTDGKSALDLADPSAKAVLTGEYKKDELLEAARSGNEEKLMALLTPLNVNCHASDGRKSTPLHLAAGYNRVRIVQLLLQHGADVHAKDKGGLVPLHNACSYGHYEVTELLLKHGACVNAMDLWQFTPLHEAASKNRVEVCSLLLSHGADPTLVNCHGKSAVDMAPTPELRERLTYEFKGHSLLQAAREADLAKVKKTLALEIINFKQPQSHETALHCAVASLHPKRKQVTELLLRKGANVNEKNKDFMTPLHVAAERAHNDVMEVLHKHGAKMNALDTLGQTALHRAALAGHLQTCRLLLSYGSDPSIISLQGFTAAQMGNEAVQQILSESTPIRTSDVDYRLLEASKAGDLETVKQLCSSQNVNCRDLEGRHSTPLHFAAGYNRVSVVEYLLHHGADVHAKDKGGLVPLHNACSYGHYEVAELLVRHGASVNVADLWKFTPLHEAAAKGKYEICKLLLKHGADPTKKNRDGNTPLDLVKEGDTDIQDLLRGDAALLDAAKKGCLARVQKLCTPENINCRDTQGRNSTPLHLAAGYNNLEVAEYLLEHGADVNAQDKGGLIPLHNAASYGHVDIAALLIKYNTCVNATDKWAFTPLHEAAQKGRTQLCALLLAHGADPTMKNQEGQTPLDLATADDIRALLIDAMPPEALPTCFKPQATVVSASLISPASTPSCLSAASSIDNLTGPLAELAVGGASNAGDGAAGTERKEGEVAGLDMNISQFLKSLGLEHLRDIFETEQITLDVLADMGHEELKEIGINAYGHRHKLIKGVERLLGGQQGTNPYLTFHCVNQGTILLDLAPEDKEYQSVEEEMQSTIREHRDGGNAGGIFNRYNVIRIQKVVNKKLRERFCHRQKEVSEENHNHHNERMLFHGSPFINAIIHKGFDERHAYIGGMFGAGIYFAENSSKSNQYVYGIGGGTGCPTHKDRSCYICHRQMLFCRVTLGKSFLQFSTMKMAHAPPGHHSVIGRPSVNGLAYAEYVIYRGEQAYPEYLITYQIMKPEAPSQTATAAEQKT
Chain of UniProt P00383 (whole entry, looked up): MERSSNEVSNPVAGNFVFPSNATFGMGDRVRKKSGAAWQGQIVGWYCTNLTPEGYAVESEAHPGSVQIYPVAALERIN

SMILES	target	test	test system	conditions	IC50
NS(=O)(=O)c1ccc(N2N=C(C(F)(F)F)CC2c2ccc(F)cc2F)cc1 (centres unmarked)	Prostaglandin G/H synthase 1 (Canis lupus familiaris, UniProt Q8HZR1)	TXB2 formation, inhibitor	clotting dog whole blood	1 h, 37 °C	37.5 µM
O=C(c1cccc(S(=O)(=O)N2CCc3ccccc3C2)c1)N1CCC(OCc2ccccc2)CC1	Voltage-dependent L-type calcium channel subunit alpha-1C (CACNA1C, Homo sapiens, UniProt Q13936)	calcium signal, fluorescence	–	–	2.87 µM
CCCC[C@H](NC(C)=O)C(=O)N[C@@H](CO)C(=O)N[C@H](C(=O)N1CCC[C@H]1C(=O)N[C@]1(C)CCCCCCC=CCCC[C@@](C)(C(=O)N[C@@H](Cc2ccccc2)C(=O)N[C@@H](CCCCN)C(=O)N[C@@H](CCCNC(=N)N)C(=O)N[C@@H](CC(C)C)C(=O)N[C@@H](CCC(N)=O)C(N)=O)NC(=O)[C@H](CCCNC(=N)N)NC(=O)[C@H](CCCC)NC(=O)[C@H](CC(C)C)NC(=O)[C@H](CCCNC(=N)N)NC(=O)[C@H](CCCNC(=N)N)NC(=O)[C@H](CCCNC(=N)N)NC1=O)[C@@H](C)O	Ubiquitin-like modifier-activating enzyme 1 (UBA1, Homo sapiens, UniProt P22314)	enzyme activity, inhibitor	–	–	2.3 µM
O=C(O)c1ccc2[nH]c(-c3ccc(OCCCCCCCCCCCCOc4ccc(-c5nc6cc(C(=O)O)ccc6[nH]5)cc4)cc3)nc2c1	Dihydrofolate reductase type 2 (Escherichia coli, UniProt P00383)	enzyme activity, inhibitor	–	pH 7	> 200 µM
O=c1[nH]sc2ccccc12	Histone deacetylase 11 (HDAC11, Homo sapiens, UniProt Q96DB2)	enzyme activity, inhibitor	–	–	> 10 µM
Cc1cc(NC(=O)[C@H](O)c2cc(F)cc(F)c2)ccc1-c1cnc(N)c(C(=O)NC(C)C)c1	Eukaryotic translation initiation factor 2-alpha kinase 1 (EIF2AK1, Homo sapiens, UniProt Q9BQI3)	enzyme activity, inhibitor, FRET	–	–	2.96 µM
C[C@H](NC(=O)[C@H](CC(=O)NCC(C)(C)C)NC(=O)C(=O)c1c[nH]c2ccccc12)C(=O)NCc1ccc(F)cc1F	Proteasome component C5/PSMB5	inhibitor	–	–	0.0024 µM
COC(=O)[C@@H](CCSC)NCc1cc2ccccc2nc1SC	ATP synthase subunit c, whole ATP synthase complex (atpE, Pseudomonas aeruginosa, UniProt Q9HT15)	ATP synthesis, inhibitor	Pseudomonas aeruginosa, inverted membrane vesicles	10 min, with: NADH	14.3 µM
O=C(COc1ccc(Cl)c(Cl)c1)Nc1ccc[n+](Cc2ccc(Cl)c(Cl)c2)c1	Transient receptor potential cation channel subfamily V member 4 (TRPV4, Homo sapiens, UniProt Q9HBA0)	calcium signal, antagonist	–	–	0.069 µM
COc1ccccc1N1CCN(c2nc3c(c(=O)[nH]2)CCCC3)CC1	Poly [ADP-ribose] polymerase tankyrase-1 (TNKS, Homo sapiens, UniProt O95271)	enzyme activity, inhibitor, ELISA	–	–	0.0422 µM
COc1cc2c(cc1OC)-c1cc3ccc(OC)c(OC)c3c[n+]1CC2	Pancreatic alpha-amylase (Homo sapiens, UniProt P04746)	enzyme activity, inhibitor	–	–	230 µM
CNC(=S)N/N=C/c1ccccn1	Superoxide dismutase [Cu-Zn] (SOD1, Homo sapiens, UniProt P00441)	enzyme activity, inhibitor	HeLa	24 h	2.12 µM
CCCCCCCCCCCCCCCC(=O)OCCN1CCN(c2cc(Nc3ncc(C(=O)Nc4c(C)cccc4Cl)s3)nc(C)n2)CC1	Tyrosine-protein kinase CSK (CSK, Homo sapiens, UniProt P41240)	enzyme activity, inhibitor	–	–	5.1 µM
COC(=O)C(CS)N1C(=O)c2cccc3c(N(C)C)ccc(c23)C1=O (centres unmarked)	Metallo-beta-lactamase VIM-2 (VIM-2, Escherichia coli, UniProt Q5U7L7)	enzyme activity, inhibitor	–	pH 7	0.41 µM
Cc1ccc(CNC(=O)[C@H](CCc2ccccc2)NC(=O)[C@H](CCc2ccccc2)NC(=O)[C@@H](N)Cc2ccncc2)cc1	Proteasome component C5/PSMB5	β5 activity, inhibitor	–	with: Suc-LLVY-AMC, PA28α-activated	0.171 µM
CN1CCN(C(=O)CSc2nc(-c3ccc(Cl)cc3)cc(C(F)(F)F)c2C#N)CC1	Trace amine-associated receptor 1 (TAAR1, Homo sapiens, UniProt Q96RJ0)	–	–	–	2.5 µM
CCC(CC)N[C@H](Cc1ccccc1)C(=O)N[C@@H](CCC(N)=O)C(=O)N[C@@H](Cc1c[nH]c2ccccc12)C(=O)N[C@@H](C)C(=O)N[C@H](C(=O)N[C@H](C)C(=O)N[C@@H](Cc1c[nH]cn1)C(=O)N[C@@H](CC(C)C)C(=O)N[C@@H](CC(C)C)C(N)=O)C(C)C	GRPR	ligand displacement in cells, radioligand	–	–	0.0166 µM
CCNC(=O)[C@H](CC(C)C)NC(=O)[C@H](Cc1c[nH]cn1)NC(=O)CNC(=O)[C@@H](NC(=O)[C@H](C)NC(=O)[C@H](Cc1c[nH]c2ccccc12)NC(=O)[C@H](CCC(N)=O)NC(=O)[C@@H](Cc1ccccc1)NC(=O)C(C)F)C(C)C (some centres unmarked)	GRPR	ligand displacement, radioligand	–	–	0.0557 µM
COc1cccc(CSC[C@@H](NC(=O)C(=O)O)C(=O)O)c1	Lysine-specific demethylase 4E (KDM4E, Homo sapiens, UniProt B2RXH2)	enzyme activity, inhibitor	–	–	204 µM
O=C(NCCCCn1ccc2ccc(F)cc21)OC(C(F)(F)F)C(F)(F)F	Monoglyceride lipase (MGLL, Homo sapiens, UniProt Q99685)	enzyme activity, inhibitor	–	–	10 µM
O=C(NCCCN1CCC(Cc2ccccc2)CC1)c1cc2ccccc2[nH]1	SLC6A3	transporter uptake, inhibitor, radiometric	–	–	> 10 µM

SMILES	target	test	test system	conditions	IC50
C[C@H](OP(=O)(O)O)[C@H]1NC(=O)[C@H](Cc2ccc3ccccc3c2)NC(=O)[C@H](CCCNC(=N)N)NC(=O)[C@@H](CCCNC(=N)N)NC(=O)[C@H](CCCNC(=N)N)NC(=O)[C@H](Cc2ccc3ccccc3c2)NC(=O)[C@@H]2CCCCN2C1=O	Peptidyl-prolyl cis-trans isomerase NIMA-interacting 1 (PIN1, Homo sapiens, UniProt Q13526)	fluorescence anisotropy competition	–	with: FITC-labelled probe	1.55 ± 0.33 µM
O=C[C@H](C[C@H]1CCNC1=O)NC(=O)[C@H](CC1CCCCC1)NC(=O)OCc1cccc(Cl)c1	Genome polyprotein, 3C protease (rhinovirus B14, UniProt P03303)	3C protease activity, inhibitor, FRET	–	–	0.05 ± 0.02 µM
CNC(=O)C1CCN(c2ccccc2NC(=O)c2ccc(-c3c(C)ccc4[nH]ncc34)c(C)c2)CC1	Ephrin type-A receptor 5 (EPHA5, Homo sapiens, UniProt P54756)	target engagement in cells, BRET	–	–	0.013 µM
C[C@@H]1NC(=O)[C@H](CCCNC(=N)N)NC(=O)[C@H](CCCCN)NC(=O)[C@@H](Cc2ccccc2)NC(=O)[C@H](CC(=O)O)NC1=O	Integrin alpha-V/beta-5 (Homo sapiens, UniProt P06756+P18084)	fibronectin binding, inhibitor	–	3 h, with: biotinylated fibronectin	> 10 µM
CC(C)C[C@@H](CN[C@@H](Cc1ccc(Cl)cc1)C(N)=O)NC(=O)[C@H](Cc1c[nH]cn1)NC(=O)CNC(=O)[C@@H](NC(=O)[C@H](C)NC(=O)[C@H](Cc1c[nH]c2ccccc12)NC(=O)[C@H](CCC(N)=O)NC(=O)[C@H](N)Cc1ccccc1)C(C)C	GRPR	inositol phosphate generation, antagonist	HuTu80	with: GRP	0.02 ± 0.001 µM
COc1ccc(-c2cc(C(F)(F)F)n3nc(N)nc3n2)cc1OC	Chemotaxis protein CheA (Escherichia coli, UniProt P07363)	kinase activity, ATP-competitive	–	with: CheW	> 100 µM
N#C/C(C(=O)c1ccc(Cl)cc1Cl)=C1\NC(=O)c2ccccc2N1	Cytoplasmic dynein 1 heavy chain 1 (DYNC1H1, Homo sapiens, UniProt Q14204)	ATPase activity, inhibitor	–	–	52 µM
CCOC(=O)c1cc2cc(-c3cc(C(=O)NCc4ccc(C(=O)O)cc4)nn3C)ccc2[nH]1	Collagenase 3 (MMP13, Homo sapiens, UniProt P45452)	enzyme activity, inhibitor	–	–	0.0093 µM
Cn1cc(-c2cc(N3CCCN(CC(F)F)S3(=O)=O)ccc2Oc2ccc(F)cc2F)c2cc[nH]c2c1=O	Bromodomain-containing protein 4, BD1 (BRD4, Homo sapiens, UniProt O60885)	cell-free assay, TR-FRET	–	–	0.00939 µM
CCOc1ccc(NS(=O)(=O)c2ccc(C)c(C(=O)N3CCOC(c4ccccc4)C3)c2)cc1 (centres unmarked)	KCNA2/KCNA1 (Homo sapiens, UniProt P16389+Q09470)	potassium current, inhibitor, automated patch clamp	CHO-K1, concatemer expressing	–	3.77 µM
Clc1cccc(Nc2nc(NCc3ccccc3)c3ccccc3n2)c1	VCP	enzyme activity, inhibitor	–	–	0.4 µM
CC[C@H](C)[C@H](NC(=O)[C@H](CCC(=O)O)NC(=O)[C@@H](NC(=O)[C@H](CCC(N)=O)NC(=O)[C@@H](N)CCCCN)[C@@H](C)CC)C(=O)N[C@@H](CCCCN)C(=O)N[C@@H](CCCCN)C(=O)N[C@@H](Cc1ccccc1)C(=O)N[C@@H](CCCCN)C(=O)O	Gap junction alpha-1 protein (GJA1, Homo sapiens, UniProt P17302)	hemichannel charge transfer, inhibitor, whole-cell voltage clamp	HeLa-Cx43	intracellular, at +70 mV	6.5 µM
C[C@H](NC(=O)[C@@H](N)Cc1c[nH]c2ccccc12)C(=O)N[C@@H](CCCNC(=N)N)C(N)=O	Ephrin type-B receptor 4 (Mus musculus, UniProt P54761)	ephrin-B2 binding, inhibitor	–	1 h, with: ephrin-B2 AP 0.02 nM	> 100 µM
CC1=C(/C=C/C(C)=C/C=C/C(C)=C/C=O)C(C)(C)CCC1	CNGA1/CNGB1 (Bos taurus, UniProt Q00194+Q28181)	cGMP-activated current, inhibitor, inside-out patch clamp	Xenopus oocytes	+100 mV, with: saturating cGMP 2 mM	0.185 µM
O=C(NC1CCC1)c1ccc2nc(-c3ccccc3)cn2c1	Protein ENL (MLLT1, Homo sapiens, UniProt Q03111)	–	–	–	0.087 µM
Cc1cc2c(NC(=O)N[C@@H]3CC(C)(C)Oc4cc(C(F)(F)F)ccc43)c(C)ccc2cn1	Transient receptor potential cation channel subfamily V member 1 (TRPV1, Homo sapiens, UniProt Q8NER1)	heat-activated current, antagonist	–	with: heat 48 °C	0.02 µM
O=C(NCCCN1CCC(Cc2ccccc2)CC1)c1ccc2ccccc2c1	SLC6A3	transporter uptake, inhibitor, radiometric	–	–	> 10 µM
N=C(NCCCC(N)C(N)=O)NCCSCC1OC(n2cnc3c(N)ncnc32)C(O)C1O (centres unmarked)	Histone-lysine N-methyltransferase SETD7 (SETD7, Homo sapiens, UniProt Q8WTS6)	enzyme activity, inhibitor, fluorescence	–	–	> 100 µM
CC(=O)c1ccc(-c2nn(C(=O)c3ccncc3)cc2C(=O)O)cc1	alpha-amylase	inhibitor	–	–	165 µg/mL
CC(=O)Nc1cccc(Nc2nc(NC(C)c3ccccc3)c3ccccc3n2)c1 (centres unmarked)	VCP	ATPase activity, inhibitor, absorbance	–	–	10.2 µM
